Measured values pooled from the literature.
Each line is one published result; not all experiments were run side by side. “And” joins repeats or separate records; there may be more than shown. Numbers after ± are the reported error.
Chrnd/Chrna1/Chrne: Chrnd/Chrna1/Chrne (Mus musculus, UniProt P02716+P04756+P20782)
UniProt P27361, sequence (whole entry, looked up): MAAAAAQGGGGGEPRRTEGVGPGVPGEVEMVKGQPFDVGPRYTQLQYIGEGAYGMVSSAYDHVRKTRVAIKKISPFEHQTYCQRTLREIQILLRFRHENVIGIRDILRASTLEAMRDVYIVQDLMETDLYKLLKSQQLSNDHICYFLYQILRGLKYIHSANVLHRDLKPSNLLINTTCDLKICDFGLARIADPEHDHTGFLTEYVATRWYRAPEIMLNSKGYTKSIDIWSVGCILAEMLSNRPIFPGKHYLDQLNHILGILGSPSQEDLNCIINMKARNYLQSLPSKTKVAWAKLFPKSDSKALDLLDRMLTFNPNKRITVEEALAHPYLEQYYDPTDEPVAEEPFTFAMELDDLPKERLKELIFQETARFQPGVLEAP
UniProt P02716, sequence (whole entry, looked up): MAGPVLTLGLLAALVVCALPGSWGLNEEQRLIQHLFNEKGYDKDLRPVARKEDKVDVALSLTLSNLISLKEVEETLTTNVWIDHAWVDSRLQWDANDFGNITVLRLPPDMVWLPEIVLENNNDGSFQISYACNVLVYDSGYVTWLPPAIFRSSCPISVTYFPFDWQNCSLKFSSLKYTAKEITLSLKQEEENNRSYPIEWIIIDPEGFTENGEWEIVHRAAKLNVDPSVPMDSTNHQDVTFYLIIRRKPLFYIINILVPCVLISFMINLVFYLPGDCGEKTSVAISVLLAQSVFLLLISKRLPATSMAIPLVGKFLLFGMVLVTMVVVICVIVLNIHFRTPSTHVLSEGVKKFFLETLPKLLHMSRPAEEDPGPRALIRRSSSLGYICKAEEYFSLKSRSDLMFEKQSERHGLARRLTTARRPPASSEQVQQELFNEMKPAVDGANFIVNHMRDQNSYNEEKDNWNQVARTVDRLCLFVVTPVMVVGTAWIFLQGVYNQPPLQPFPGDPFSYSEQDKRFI
UniProt P35499, sequence (whole entry, looked up): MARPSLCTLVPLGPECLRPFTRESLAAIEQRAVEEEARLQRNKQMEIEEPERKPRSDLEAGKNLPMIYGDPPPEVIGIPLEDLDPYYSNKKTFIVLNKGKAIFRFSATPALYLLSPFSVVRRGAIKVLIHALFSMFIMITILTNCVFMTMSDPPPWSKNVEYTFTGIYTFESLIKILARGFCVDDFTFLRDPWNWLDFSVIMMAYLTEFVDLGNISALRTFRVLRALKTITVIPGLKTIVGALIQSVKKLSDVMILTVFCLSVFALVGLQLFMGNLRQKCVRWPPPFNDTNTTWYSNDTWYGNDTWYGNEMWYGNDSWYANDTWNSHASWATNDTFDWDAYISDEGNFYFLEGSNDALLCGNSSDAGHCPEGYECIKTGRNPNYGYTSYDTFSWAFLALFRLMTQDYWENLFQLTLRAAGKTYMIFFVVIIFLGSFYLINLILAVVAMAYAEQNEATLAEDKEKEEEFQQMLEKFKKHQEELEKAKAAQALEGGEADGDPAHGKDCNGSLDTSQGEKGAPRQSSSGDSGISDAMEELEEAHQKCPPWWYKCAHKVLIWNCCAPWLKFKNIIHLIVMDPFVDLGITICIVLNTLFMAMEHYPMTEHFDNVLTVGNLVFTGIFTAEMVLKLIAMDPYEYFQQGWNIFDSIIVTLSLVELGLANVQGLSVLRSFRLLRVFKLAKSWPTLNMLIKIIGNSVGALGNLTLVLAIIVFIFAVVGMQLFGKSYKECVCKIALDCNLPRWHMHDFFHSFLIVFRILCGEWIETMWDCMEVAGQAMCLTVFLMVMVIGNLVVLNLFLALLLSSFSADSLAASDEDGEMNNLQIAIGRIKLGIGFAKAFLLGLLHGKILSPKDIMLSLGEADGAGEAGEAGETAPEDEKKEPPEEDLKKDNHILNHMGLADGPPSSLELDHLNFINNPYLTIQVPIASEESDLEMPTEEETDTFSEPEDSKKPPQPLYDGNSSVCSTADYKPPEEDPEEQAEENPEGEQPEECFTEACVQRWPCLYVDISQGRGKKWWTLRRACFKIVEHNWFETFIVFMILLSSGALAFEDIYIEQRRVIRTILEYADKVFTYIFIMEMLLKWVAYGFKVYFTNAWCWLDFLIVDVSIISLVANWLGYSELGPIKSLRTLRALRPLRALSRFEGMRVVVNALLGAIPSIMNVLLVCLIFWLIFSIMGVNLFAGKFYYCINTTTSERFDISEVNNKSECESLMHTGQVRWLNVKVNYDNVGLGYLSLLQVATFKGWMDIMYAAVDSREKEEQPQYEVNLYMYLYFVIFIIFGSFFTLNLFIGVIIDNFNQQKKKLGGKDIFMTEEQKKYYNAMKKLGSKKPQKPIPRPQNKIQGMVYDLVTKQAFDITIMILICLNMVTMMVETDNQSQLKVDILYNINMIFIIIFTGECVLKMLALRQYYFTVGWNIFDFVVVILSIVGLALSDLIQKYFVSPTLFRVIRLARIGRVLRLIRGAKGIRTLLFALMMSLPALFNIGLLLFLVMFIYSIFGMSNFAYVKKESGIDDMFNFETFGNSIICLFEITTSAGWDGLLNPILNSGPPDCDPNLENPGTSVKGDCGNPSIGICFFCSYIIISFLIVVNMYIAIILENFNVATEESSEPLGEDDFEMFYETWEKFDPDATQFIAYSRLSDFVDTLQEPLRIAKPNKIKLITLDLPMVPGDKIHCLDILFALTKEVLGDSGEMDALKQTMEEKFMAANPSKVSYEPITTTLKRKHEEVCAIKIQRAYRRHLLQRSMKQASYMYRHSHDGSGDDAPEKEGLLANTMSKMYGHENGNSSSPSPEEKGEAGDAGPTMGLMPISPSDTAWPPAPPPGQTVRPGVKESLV
UniProt P04756, sequence (whole entry, looked up): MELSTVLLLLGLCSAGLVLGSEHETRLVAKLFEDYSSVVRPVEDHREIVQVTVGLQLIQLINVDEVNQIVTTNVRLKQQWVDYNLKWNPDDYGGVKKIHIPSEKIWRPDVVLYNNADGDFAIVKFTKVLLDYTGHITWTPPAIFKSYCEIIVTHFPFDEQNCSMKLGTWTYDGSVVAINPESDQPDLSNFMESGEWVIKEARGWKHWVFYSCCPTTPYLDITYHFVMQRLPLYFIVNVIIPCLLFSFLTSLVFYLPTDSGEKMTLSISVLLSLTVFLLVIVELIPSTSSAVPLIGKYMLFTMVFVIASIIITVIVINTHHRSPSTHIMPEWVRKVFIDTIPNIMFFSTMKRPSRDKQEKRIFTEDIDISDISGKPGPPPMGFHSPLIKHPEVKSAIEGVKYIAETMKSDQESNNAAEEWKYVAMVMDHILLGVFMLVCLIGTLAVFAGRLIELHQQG
UniProt P20782, sequence (whole entry, looked up): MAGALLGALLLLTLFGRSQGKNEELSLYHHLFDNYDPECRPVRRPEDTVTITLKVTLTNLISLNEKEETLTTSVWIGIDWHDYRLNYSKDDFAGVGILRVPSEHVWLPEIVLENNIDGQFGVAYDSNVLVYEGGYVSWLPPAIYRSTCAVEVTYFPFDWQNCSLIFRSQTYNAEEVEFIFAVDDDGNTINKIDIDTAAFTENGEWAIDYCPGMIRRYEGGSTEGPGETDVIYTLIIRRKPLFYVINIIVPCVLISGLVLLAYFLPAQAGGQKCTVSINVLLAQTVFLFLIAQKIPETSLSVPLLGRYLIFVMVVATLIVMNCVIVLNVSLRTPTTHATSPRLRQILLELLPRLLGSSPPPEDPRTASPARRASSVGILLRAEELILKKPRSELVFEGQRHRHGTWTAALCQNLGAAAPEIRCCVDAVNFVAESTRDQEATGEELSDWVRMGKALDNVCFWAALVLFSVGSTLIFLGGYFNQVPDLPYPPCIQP
UniProt P21728, sequence (whole entry, looked up): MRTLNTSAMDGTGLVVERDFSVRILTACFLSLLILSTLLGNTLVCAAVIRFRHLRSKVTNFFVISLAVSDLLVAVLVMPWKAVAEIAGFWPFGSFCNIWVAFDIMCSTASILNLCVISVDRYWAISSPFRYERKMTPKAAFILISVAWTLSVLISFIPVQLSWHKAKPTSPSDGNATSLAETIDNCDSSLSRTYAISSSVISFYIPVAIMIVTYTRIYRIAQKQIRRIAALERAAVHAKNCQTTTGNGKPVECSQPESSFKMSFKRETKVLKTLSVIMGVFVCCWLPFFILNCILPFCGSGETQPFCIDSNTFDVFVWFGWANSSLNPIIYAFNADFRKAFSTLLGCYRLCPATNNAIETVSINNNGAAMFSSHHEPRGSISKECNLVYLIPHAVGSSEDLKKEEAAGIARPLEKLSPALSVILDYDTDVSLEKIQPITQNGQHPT
UniProt Q96E52, sequence (whole entry, looked up): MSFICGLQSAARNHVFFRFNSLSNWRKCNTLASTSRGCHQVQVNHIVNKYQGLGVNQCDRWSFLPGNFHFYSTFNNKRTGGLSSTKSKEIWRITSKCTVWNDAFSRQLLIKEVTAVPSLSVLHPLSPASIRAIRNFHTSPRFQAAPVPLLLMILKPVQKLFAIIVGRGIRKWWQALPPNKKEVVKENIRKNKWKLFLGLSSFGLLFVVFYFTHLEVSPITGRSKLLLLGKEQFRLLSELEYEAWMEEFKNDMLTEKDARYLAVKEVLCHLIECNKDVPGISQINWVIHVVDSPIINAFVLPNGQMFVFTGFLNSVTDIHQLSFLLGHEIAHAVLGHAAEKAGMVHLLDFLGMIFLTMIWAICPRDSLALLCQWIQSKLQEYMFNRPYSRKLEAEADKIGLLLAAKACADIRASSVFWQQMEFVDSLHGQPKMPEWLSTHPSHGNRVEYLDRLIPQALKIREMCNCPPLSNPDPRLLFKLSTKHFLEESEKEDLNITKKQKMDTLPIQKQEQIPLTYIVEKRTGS
UniProt C6WFL3, sequence (whole entry, looked up): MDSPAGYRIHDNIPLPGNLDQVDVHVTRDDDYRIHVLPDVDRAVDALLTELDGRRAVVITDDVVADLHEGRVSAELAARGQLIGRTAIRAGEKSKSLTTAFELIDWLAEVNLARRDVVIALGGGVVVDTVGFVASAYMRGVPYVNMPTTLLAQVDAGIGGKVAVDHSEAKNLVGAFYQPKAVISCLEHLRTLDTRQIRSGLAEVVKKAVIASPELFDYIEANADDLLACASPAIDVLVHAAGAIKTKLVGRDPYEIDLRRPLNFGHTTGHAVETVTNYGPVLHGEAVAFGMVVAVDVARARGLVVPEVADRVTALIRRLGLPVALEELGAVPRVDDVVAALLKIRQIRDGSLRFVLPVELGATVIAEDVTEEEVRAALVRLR

O=C1CC(C(=O)O)NC(=O)N1 (stereo not shown) — kred (Dihydroorotate dehydrogenase A (fumarate) (pyrDA, Lactococcus lactis subsp. cremoris, UniProt A2RJT9, V133T); flavin reduction, stopped-flow; Lactococcus lactis; pH 8.5, 4 °C): 41 ± 0.8 s⁻¹
CN(N=O)c1ccc(O)c(O)c1 — remaining activity (DCLRE1A (Homo sapiens, UniProt Q6PJP8); exonuclease activity, inhibitor, fluorescence HTS; 10 µM, 80 min, added: 8 nM 5P-FQ substrate; reference: high and low controls): 45%
O=C(Nc1cccnn1)N1CCC(=Cc2cccc(Oc3ccc(C(F)(F)F)cn3)c2)CC1 — inhibition of binding (ESR2 (Homo sapiens, UniProt Q92731); radioligand binding; 50 µM, added: [3H]estradiol): 0%
C[N+](C)(C)CCOC(N)=O — endplate depolarization response (Chrnd/Chrna1/Chrne; mouse end plates; 20 µM, unit not given; reference: control): 0.344
CCN(CC)CCCC[C@H](NC(=O)[C@H](CC(C)C)NC(=O)[C@H](C)NC(=O)[C@H](Cc1ccccc1)NC(=O)c1ccc(C(C)(C)C)cc1)C(=O)N[C@@H](CO)C(=O)OC — specific binding (DRD1 (Homo sapiens, UniProt P21728); antagonist, radioligand binding; 10 µM; reference: control binding): 95.7%
COc1cc(N)c(Cl)cc1C(=O)NC1CN2CCC1CC2 (stereo not shown) — log2 fold change (MRGPRX2 (Homo sapiens, UniProt Q96LB1); β-arrestin recruitment, TANGO luminescence; concentration not given; reference: basal luminescence): -0.196
C[C@@H](O)[C@H](NC(=O)c1ccc(C#Cc2ccccc2)cc1)C(=O)NO — entropy change (ΔS) (UDP-3-O-acyl-N-acetylglucosamine deacetylase (Pseudomonas aeruginosa, UniProt P47205, C40S); isothermal titration calorimetry; concentration not given, 298 K, untagged protein, averaged): 0.0171 kcal/mol/K
C[C@H]1CN(c2n[nH]c3nc(N[C@H]4CC[C@H](NS(=O)(=O)CCC(F)(F)F)CC4)ncc23)CCO1 — relative abundance (CDC37 (Homo sapiens, UniProt Q16543); inhibitor, Kinobeads competition profiling; 0.16 µM; reference: vehicle): 1
O=C(c1ccc(Cl)cc1)N1CCN2C(=O)N(OC(=O)N3CCOc4ccccc43)C(=O)C2C1 (stereo not shown) — mean protein ratio (Acyl-coenzyme A thioesterase 2, mitochondrial (ACOT2, Homo sapiens, UniProt P49753); MS-based ABPP; SW-620 conditioned medium; 10 µM, 1 h, 37 °C; reference: compound over DMSO, lower = more inhibition): 1.05
N[C@@H](Cc1ccc(O)c(I)c1)C(=O)O — affinity decrease (Iodotyrosine deiodinase (Haliscomenobacter hydrossis, UniProt F4KU78, R38K); reference: wild type over mutant): > 10 fold
c1cncc([C@@H]2CCCN2)c1 — resting-state koff (Chrnd/Chrna1/Chrne; single-channel kinetics; wild-type receptor): 3650 s⁻¹
CC(=O)N[C@H](C(=O)N1C[C@H](O)C[C@H]1C(=O)NCc1ccc(-c2scnc2C)cc1)C(C)(C)SCCCCCCNC(=O)C[C@@H]1N=C(c2ccc(Cl)cc2)c2c(sc(C)c2C)-n2c(C)nnc21 — ΔG (Bromodomain-containing protein 4, BD2 (BRD4, Homo sapiens, UniProt O60885, A384K/E383V/K378Q); ITC; 25 °C, BD2 mutant, binary): -10.11 ± 0.01 kcal/mol
O=C(O)c1cc[c]([Hg][Cl])cc1 — maximum inhibition (blaNDM-1 (Klebsiella pneumoniae, UniProt C7C422); inhibitor): < 100%
O=C(O)c1ccccc1 — binding (Germin-like protein subfamily 3 member 1 (GLP1, Arabidopsis thaliana, UniProt P94040); microscale thermophoresis; Arabidopsis protoplast extract; concentration not given): no binding
CC[C@@H](C)[C@@H](NC(=O)[C@@H](Cc1ccc(O)cc1)NC(=O)[C@H]1CCCN1C(=O)[C@@H](CCCNC(=N)N)NC(=O)[C@H](N)Cc1c[nH]cn1)C(=O)N[C@H](C)C(=O)N[C@H](Cc1c[nH]cn1)C(=O)N[C@H](CCCNC(=N)N)C(=O)N[C@H](CCCCNC(=O)c1cccc(S(=O)(=O)F)c1)C(=O)N[C@H](Cc1ccc(O)cc1)C(=O)N[C@H](CO)C(=O)N[C@H](Cc1ccccc1)C(N)=O — surface TFRC expression (Transferrin receptor protein 1 (Tfrc, Mus musculus, UniProt Q62351); flow cytometry; RAW264.7; 48 h, pH 7.4, unit not given; reference: 0 h): 0.943
CO/N=C1\C[C@]2(C[C@@H]3C[C@@H](C/C=C(\C)C[C@@H](C)/C=C/C=C4\CO[C@@H]5[C@H](O)C(C)=C[C@@H](C(=O)O3)[C@]45O)O2)O[C@H](/C(C)=C/C(C)C)[C@H]1C — activity (Nuclear receptor subfamily 1 group I member 3 (Homo sapiens, UniProt Q14994); cells; concentration not given): inactive
CNC(=O)Oc1ccccc1OC(C)C — remaining activity (uncharacterized protein (Anopheles coluzzii, UniProt A0A6E8VQK1); enzyme activity, inhibitor; Sf9 cell homogenate; 0.2326 µM, 0.1667 h, added: α-naphthyl acetate substrate; reference: no inhibitor): 97.5%
O=C(O)COP(=O)(O)O — Ki ratio (TPI1 (Saccharomyces cerevisiae, UniProt P00942, S211A); enzyme activity, competitive inhibitor, GPDH/NADH-coupled; pH 4.9, 25 °C, ionic strength 0.1 NaCl, added: glyceraldehyde 3-phosphate substrate; reference: mutant over wild type): 159
Cc1ccc(C(=O)Nc2ccnc(S(N)(=O)=O)c2)c(N2CCCC(F)(F)CC2)n1 — selectivity ratio (SCN4A (Homo sapiens, UniProt P35499); automated patch clamp; reference: IC50 Nav1.4 over IC50 Nav1.8): ~2000 fold and 1780 fold
COc1ccc(N2C(=O)N(c3c(C)cccc3Cl)Cc3cnc(Nc4ccc(C5CCN(C)CC5)cc4OC)nc32)nc1 — inhibition (PDPK1 (Homo sapiens, UniProt O15530); kinase activity, inhibitor; 0.5 µM, PDK1): 12%
CC(=O)N[C@@H](CO)C(=O)N[C@@H](Cc1ccccc1)C(=O)N[C@@H](CCC(=O)O)C(=O)N[C@@H](Cc1ccccc1Cl)C(=O)N1CCC[C@H]1C(=O)N1CCC[C@H]1C(=O)N1CCC[C@H]1C(=O)N1CCC[C@H]1C(=O)N[C@H](C(=O)N[C@@H](CCC(=O)O)C(=O)N[C@@H](CC(=O)O)C(=O)N[C@@H](CCC(=O)O)C(=O)N[C@@H](CC(C)C)C(N)=O)[C@@H](C)O — binding free energy (Vasodilator-stimulated phosphoprotein, EVH1 domain (VASP, Homo sapiens, UniProt P50552); fluorescence titration; 25 °C): -7.96 kcal/mol
O=C(Nc1cnccc1Cl)N1CCN(Cc2ccc3c(c2)OC(F)(F)O3)CC1 — inhibition (Adra1a (Rattus norvegicus, UniProt P43140); binding; 50 µM, added: [3H]prazosin): -10%
[2H]c1c([2H])c([C@]2([2H])CCCN2C(=O)C(C)(C)Oc2ccc3cn[nH]c3c2)c([2H])c([2H])c1C([2H])([2H])[2H] — remaining binding (CDKL3 (Homo sapiens, UniProt Q8IVW4); KINOMEscan; 1 µM; reference: DMSO control): 90%
Cc1nn(C)cc1-c1nc2c(N3CCN(Cc4ccc(Cl)cc4)CC3)c(Cl)cnc2[nH]1 — remaining binding (PKMYT1 (Homo sapiens, UniProt Q99640); KINOMEscan; 1 µM; reference: DMSO control): 95%
CO[P@](=O)(Oc1ccccc1)OC1CCCCC1 — Km (had (Sphingobium sp. TCM1, UniProt A0A077JBW9)): 370 ± 50 µM
O=P(O)(O)OC[C@H]1C[C@@](O)(CO)[C@@H](O)[C@H](O)[C@@H]1O — apparent Vmax (2-epi-valiolone synthase (Actinosynnema mirum, UniProt C6WFL3); phosphate release; 50 µM): 1.9 ± 0.2 µM/min
CN(C(=O)n1cnc(-c2ccc[n+]([O-])c2)c1)C1CCCCC1 — inhibition (MAPKAPK5 (Homo sapiens, UniProt Q8IW41); kinase activity, inhibitor; 50 µM, added: PRAK substrate peptide): -1%
CN1CCN(c2cc(-c3ccncc3)c(-c3ccc4ccccc4c3)nn2)CC1 — activation (FFAR2 (Homo sapiens, UniProt O15552); agonist, FLIPR; 12.5 µM): 15%
CC[C@H](C)[C@H](NC(=O)CNC(=O)[C@@H](N)CCCCN)C(=O)N[C@@H](CC(C)C)C(=O)N[C@@H](CCCCN)C(=O)N[C@@H](CCCNC(=N)N)C(=O)N[C@@H](CCC(=O)O)C(=O)N[C@@H](CCCCN)C(=O)N[C@@H](CCCNC(=N)N)C(=O)N[C@@H](CC(C)C)C(=O)N[C@@H](CCCNC(=N)N)C(=O)N[C@@H](CCCNC(=N)N)C(=O)N[C@@H](CCCCN)C(=O)N[C@@H](CC(N)=O)C(=O)N[C@H](C(=O)N[C@@H](Cc1c[nH]cn1)C(=O)N[C@@H](Cc1c[nH]c2ccccc12)C(=O)N1CCC[C@H]1C(=O)N[C@@H](CCC(=O)O)C(=O)N[C@@H](CCC(=O)O)C(=O)NCC(=O)N[C@@H](CCCCN)C(=O)N[C@@H](CC(C)C)C(=O)N[C@@H](CCCNC(=N)N)C(=O)N[C@@H](CCC(=O)O)C(=O)N[C@@H](Cc1ccc(O)cc1)C(=O)N[C@@H](Cc1ccccc1)C(=O)N[C@@H](Cc1ccc(O)cc1)C(=O)N[C@@H](Cc1ccccc1)C(=O)N[C@@H](CCC(=O)O)C(=O)N[C@@H](CC(C)C)C(=O)N[C@@H](CC(=O)O)C(=O)N[C@@H](CCC(=O)O)C(=O)N[C@@H](C)C(=O)N[C@@H](CCC(=O)O)C(=O)N[C@@H](CCCNC(=N)N)C(=O)N[C@H](C(=O)N[C@@H](CC(N)=O)C(=O)N[C@H](C(=O)O)C(C)C)C(C)C)C(C)C — entropy change ΔS (PPP1CA (Homo sapiens, UniProt P62136); binding, isothermal titration calorimetry; concentration not given, 25 °C, PP1α residues 7-330): -36.8 ± 6.1 cal/mol/K
C[C@@H](NC(=O)[C@@H](N)Cc1ccc(O)cc1)C(=O)NCC(=O)N[C@@H](Cc1ccccc1)C(N)=O — selectivity ratio (Oprm1 (Rattus norvegicus, UniProt P33535); binding; reference: Ki δ over Ki µ): 107
C[C@H]1CCC/C=C/[C@@H]2C[C@H](O)C[C@H]2[C@H](O)/C=C/C(=O)O1 — FLuc/RLuc ratio (Protein transport protein Sec61 subunit alpha isoform 1 (Homo sapiens, UniProt P61619); reporter gene, inhibitor, dual luciferase; HEK293 with SP-CD4-FLuc reporter; concentration not given): 6.34 and 4.77 and 6.14 and 6.42
CC(C)[C@@H]1NC(=O)[C@H](C)OC(=O)[C@@H](C(C)C)NC(=O)[C@@H](C(C)C)OC(=O)[C@H](C(C)C)NC(=O)[C@H](C)OC(=O)[C@@H](C(C)C)NC(=O)[C@@H](C(C)C)OC(=O)[C@H](C(C)C)NC(=O)[C@H](C)OC(=O)[C@@H](C(C)C)NC(=O)[C@@H](C(C)C)OC1=O — protein level (Metalloendopeptidase OMA1, mitochondrial (OMA1, Homo sapiens, UniProt Q96E52); Western blot, refers to: OMA1; HEK293T, control siRNA; concentration not given): 73.4 ± 6.7%
C[C@]12CC[C@H]3[C@@H](CCC4=CC(=O)CC[C@@]43C)[C@@H]1CC[C@@H]2C(=O)CO — maximal response (NR3C2 (Homo sapiens, UniProt P08235); reporter gene, agonist; reference: baseline): 23 fold
COC(=O)[C@@]1(O)C[C@H]2O[C@]1(C)n1c3ccccc3c3c4c(c5c6ccccc6n2c5c31)C(=O)NC4 — kinase activity (MAPK3 (Homo sapiens, UniProt P27361); ADP-Glo; 4.15 µM, added: MBP substrate): 102% and 118% and 103%
CC(C)C[C@H](NC(=O)[C@H](Cc1ccccc1)NC(=O)[C@@H]1CCCN1C(=O)[C@H](CCCNC(=N)N)NC(=O)[C@H](CCC(=O)O)NC(=O)[C@@H]1CCCN1C(=O)[C@H](CO)NC(=O)[C@@H](N)CCC(=O)O)C(=O)O — kon (Epithelial sodium channel subunit alpha (Homo sapiens, UniProt P37088); binding, bio-layer interferometry): 157 M⁻¹ s⁻¹
CC(CCn1ccc(-c2ccc(-c3cnnn3Cc3ccccc3)cc2)cc1=O)(C(=O)NO)S(C)(=O)=O (stereo not shown) — residence time (UDP-3-O-acyl-N-acetylglucosamine deacetylase (Pseudomonas aeruginosa, UniProt P47205); fluorescence; 37 °C): 9 min
COc1cc(Nc2ncc(F)c(Nc3ccc4c(n3)NC(=O)C(C)(C)O4)n2)cc(OC)c1OC — inhibition (BMPR1B (Homo sapiens, UniProt O00238); KINOMEscan; 10 µM): 74%

For quick reference, copied from above:
C[C@H]1CN(c2n[nH]c3nc(N[C@H]4CC[C@H](NS(=O)(=O)CCC(F)(F)F)CC4)ncc23)CCO1 — relative abundance (CDC37 (Homo sapiens, UniProt Q16543); inhibitor, Kinobeads competition profiling; 0.16 µM; reference: vehicle): 1
O=C(c1ccc(Cl)cc1)N1CCN2C(=O)N(OC(=O)N3CCOc4ccccc43)C(=O)C2C1 (stereo not shown) — mean protein ratio (Acyl-coenzyme A thioesterase 2, mitochondrial (ACOT2, Homo sapiens, UniProt P49753); MS-based ABPP; SW-620 conditioned medium; 10 µM, 1 h, 37 °C; reference: compound over DMSO, lower = more inhibition): 1.05
